Published values of several laboratories.
Parts stem from different laboratories: compare values within a part only. Changes are numbered by the printed parent chain.

Study 1 — target: OGT, full length, His-tagged (human); method: phage display, sequencing; matrix: in vitro; concentration: 1 µg OGT; reference: input library; direction: higher = stronger binding; starting sequence: peptide; TAPFYPPAYQIQVFK
Notes: single substitutions, 15-mer displayed peptide, unchanged parent 19.6
Variant | fold enrichment
T1N | 22.9 fold
Q12M | 7.68 fold
K15Q | 8.69 fold
I11M | 1.1 fold
F14W | 10.8 fold
A2Q | 14.7 fold
I11V | 0.881 fold
A8L | 17.3 fold

Study 2 — method: RNA Bind-n-Seq; form: RNA; matrix: in vitro; concentration: 200 nM; notes: whole 134-nt RNA, ends assumed; added: 150 mM LiCl; reference: input library; direction: higher = stronger binding; each molecule: 7-deaza-guanosine replaces G
Target: Ras GTPase-activating protein-binding protein 1, full length (G3BP1, Homo sapiens, UniProt Q13283)
Chain of UniProt Q13283 (whole entry, looked up): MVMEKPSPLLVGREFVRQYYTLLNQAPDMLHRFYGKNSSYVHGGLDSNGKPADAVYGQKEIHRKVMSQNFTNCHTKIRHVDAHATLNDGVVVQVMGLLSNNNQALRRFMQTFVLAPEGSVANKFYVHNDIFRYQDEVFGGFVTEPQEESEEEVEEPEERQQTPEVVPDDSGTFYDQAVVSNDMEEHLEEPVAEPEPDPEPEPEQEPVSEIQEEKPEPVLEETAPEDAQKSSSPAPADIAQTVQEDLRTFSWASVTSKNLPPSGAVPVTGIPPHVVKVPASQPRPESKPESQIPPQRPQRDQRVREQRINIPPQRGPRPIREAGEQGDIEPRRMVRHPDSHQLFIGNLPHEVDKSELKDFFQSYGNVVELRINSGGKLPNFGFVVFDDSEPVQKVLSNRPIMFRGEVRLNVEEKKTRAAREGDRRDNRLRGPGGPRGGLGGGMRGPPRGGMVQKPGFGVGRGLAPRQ
Shared flanks, not repeated: GGGAGUUCUACAGUCCGACGAUC … UGGAAUUCUCGGGUGUCAAGG
Oligonucleotide | log2 enrichment
UCCUGUGCUACACAUCGUAUGUACCGAAUCGGAAAAAAGGAAAAAAGGGAAAAAAGGGGAAAGUAUUAUGUUACGCCGUUCGGAUCUGCA | -0.722
UCCUCAAGUCCUGUGCUACACAUCGUAUGUACCGAAUCGGGGUGGUGGGUGGAAAGUAUUAUGUUACGCCGUUCGGAUCUGCACUUCCAG | 0.0471
UCAAGUCCUGUGCUACACAUCGUAUGUACCGAAUCGGUUUUUUUGGAGGUUUGGAAAGUAUUAUGUUACGCCGUUCGGAUCUGCACUUCC | -0.471
GUCCUGUGCUACACAUCGUAUGUACCGAAUCGGCCCCCGGGCCCCCGGGCCCCCGGGGAAAGUAUUAUGUUACGCCGUUCGGAUCUGCAC | -1.32
UGUGCUACACAUCGUAUGUACCGAAUCGGGGAAAAAAAGGGGUUUUUGGGGAAAAAAAGGGGAAAGUAUUAUGUUACGCCGUUCGGAUCU | 0.00838
UUUACAAAUAUGCCCAAGACUUCUUGGUGGCUAUUGCAGAGCCAGUGUGCCGACCAACCCAUGUGCAUGAGUACAAACUAACUGCCUACU | 0.109
GCAGGAAGUAAAAACAAAUGGAAAUGCUUCGGAUAGUUGCAGGGGUGGGGGUUGCUAAGGAAAGGGUGGGAUGGGAGUGGGUAAAGAGUU | 0.184
CUGUGCUACACAUCGUAUGUACCGAAUCGGGGUUUUUGGGGAAAAAGGGGUUUUUUUGGGGAAAGUAUUAUGUUACGCCGUUCGGAUCUG | -0.379

Study 3 — method: RNA Bind-n-Seq; form: RNA; matrix: in vitro; concentration: 20 nM; notes: 6-mer, flanks averaged, single round; added: 150 mM LiCl; reference: input library; direction: higher = stronger binding
Target: TAR DNA-binding protein 43, full length, His tag (TARDBP, Homo sapiens, UniProt Q13148, residues 1-414)
Oligonucleotide | 6-mer enrichment (R)
GGUCCG | 0.963
GAAAAC | 0.774
UCGCGC | 0.913
AUCACG | 0.814
GAGUCA | 0.888
UUCAGG | 0.91
AAAAUA | 0.976
AGUCAU | 0.837

Further values, each from its own experiment — starting sequence: viral docking peptide; KGVKRKLFAEDSS
Variant | target | test | system | conditions | how to read | quantity | value
KGMKRKLFAEDSS [V3M] | CCND2, cyclin fold, Cln2 fusion (human) | yeast growth competition, sequencing | yeast | weak parent motif | reference: not given, higher = stronger binding | normalised enrichment score | -0.502

Some of these lines once more (study 1):
Variant | fold enrichment
K15Q | 8.69 fold
I11M | 1.1 fold
F14W | 10.8 fold
A2Q | 14.7 fold
